Measurements of several laboratories.
Numbered parts are unrelated; each lists some results of a single study. “And” joins repeats or separate records; there may be more than shown.
UniProt P21127, sequence (whole entry, looked up): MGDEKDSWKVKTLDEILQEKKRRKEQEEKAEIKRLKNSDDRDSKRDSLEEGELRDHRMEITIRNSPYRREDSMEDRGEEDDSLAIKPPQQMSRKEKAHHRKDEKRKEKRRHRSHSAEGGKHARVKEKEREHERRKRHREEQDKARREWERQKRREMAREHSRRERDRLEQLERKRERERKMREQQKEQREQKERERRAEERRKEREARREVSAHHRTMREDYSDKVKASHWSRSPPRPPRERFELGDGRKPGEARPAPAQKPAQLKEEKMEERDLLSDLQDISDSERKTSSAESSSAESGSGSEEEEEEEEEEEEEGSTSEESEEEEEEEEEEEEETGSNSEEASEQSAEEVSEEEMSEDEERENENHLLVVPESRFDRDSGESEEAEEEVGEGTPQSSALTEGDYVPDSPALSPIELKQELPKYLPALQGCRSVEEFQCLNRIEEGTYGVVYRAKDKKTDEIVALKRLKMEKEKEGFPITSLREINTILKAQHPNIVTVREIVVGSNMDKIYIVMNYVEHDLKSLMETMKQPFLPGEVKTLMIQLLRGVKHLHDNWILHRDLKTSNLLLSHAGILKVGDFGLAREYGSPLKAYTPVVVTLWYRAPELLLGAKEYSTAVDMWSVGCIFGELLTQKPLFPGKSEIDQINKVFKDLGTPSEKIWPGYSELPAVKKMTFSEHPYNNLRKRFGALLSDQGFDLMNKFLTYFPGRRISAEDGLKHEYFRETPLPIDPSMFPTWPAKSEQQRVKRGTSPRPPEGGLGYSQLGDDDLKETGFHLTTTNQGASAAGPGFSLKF
UniProt P36894, sequence (whole entry, looked up): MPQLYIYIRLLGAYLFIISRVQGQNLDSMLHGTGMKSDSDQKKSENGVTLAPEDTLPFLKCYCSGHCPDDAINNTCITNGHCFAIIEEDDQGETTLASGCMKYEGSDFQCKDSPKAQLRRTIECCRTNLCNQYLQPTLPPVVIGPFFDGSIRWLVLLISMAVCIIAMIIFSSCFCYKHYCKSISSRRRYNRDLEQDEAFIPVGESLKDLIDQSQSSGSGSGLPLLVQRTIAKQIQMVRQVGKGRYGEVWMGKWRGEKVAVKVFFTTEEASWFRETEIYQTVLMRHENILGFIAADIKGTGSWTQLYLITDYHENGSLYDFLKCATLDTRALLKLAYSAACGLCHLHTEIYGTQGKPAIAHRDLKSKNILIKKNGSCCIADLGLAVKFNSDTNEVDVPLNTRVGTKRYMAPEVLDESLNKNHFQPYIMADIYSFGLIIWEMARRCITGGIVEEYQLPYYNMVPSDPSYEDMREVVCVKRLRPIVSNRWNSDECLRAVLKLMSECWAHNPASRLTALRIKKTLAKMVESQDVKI
UniProt Q13523, sequence (whole entry, looked up): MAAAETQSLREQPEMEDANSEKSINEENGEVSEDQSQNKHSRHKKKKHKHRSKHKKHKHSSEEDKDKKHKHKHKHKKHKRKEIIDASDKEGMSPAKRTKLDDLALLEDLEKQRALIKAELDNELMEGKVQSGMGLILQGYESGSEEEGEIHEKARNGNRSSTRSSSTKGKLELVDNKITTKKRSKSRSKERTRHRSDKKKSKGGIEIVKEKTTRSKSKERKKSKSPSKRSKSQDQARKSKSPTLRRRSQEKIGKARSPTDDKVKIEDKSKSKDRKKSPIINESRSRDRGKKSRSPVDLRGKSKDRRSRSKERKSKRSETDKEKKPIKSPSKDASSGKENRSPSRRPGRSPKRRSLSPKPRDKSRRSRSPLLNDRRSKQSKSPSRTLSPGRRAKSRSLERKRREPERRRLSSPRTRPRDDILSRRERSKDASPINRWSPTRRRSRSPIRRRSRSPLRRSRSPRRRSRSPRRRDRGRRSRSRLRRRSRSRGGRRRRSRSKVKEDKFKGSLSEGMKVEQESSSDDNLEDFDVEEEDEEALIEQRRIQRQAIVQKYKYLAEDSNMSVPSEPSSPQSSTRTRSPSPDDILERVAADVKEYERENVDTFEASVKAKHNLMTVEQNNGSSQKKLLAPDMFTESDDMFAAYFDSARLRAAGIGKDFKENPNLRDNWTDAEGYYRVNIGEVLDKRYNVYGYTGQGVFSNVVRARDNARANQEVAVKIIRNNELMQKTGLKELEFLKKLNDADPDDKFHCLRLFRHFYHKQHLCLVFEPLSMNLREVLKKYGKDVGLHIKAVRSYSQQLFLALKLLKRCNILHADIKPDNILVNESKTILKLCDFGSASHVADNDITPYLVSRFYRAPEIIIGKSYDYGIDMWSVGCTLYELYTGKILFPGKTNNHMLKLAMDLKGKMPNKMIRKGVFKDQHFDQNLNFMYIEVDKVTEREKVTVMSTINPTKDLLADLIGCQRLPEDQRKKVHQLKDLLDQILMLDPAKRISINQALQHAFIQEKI
UniProt P53667, sequence (whole entry, looked up): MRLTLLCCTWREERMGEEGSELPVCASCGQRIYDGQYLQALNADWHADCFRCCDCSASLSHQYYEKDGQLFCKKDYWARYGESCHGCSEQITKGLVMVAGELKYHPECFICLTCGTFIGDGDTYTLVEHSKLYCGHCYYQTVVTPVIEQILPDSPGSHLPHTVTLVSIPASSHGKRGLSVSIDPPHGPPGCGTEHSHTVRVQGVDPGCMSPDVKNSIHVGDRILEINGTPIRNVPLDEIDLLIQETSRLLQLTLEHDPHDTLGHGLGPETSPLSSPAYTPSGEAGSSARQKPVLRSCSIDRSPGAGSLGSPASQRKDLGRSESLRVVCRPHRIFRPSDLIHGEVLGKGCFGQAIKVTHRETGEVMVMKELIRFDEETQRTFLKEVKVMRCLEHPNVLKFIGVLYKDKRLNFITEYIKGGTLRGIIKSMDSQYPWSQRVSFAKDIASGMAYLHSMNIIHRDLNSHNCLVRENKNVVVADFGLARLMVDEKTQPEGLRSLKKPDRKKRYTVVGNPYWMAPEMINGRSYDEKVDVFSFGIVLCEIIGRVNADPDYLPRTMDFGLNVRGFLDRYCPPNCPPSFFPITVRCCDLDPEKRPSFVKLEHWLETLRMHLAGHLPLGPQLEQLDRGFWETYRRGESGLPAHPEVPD
UniProt O95835, sequence (whole entry, looked up): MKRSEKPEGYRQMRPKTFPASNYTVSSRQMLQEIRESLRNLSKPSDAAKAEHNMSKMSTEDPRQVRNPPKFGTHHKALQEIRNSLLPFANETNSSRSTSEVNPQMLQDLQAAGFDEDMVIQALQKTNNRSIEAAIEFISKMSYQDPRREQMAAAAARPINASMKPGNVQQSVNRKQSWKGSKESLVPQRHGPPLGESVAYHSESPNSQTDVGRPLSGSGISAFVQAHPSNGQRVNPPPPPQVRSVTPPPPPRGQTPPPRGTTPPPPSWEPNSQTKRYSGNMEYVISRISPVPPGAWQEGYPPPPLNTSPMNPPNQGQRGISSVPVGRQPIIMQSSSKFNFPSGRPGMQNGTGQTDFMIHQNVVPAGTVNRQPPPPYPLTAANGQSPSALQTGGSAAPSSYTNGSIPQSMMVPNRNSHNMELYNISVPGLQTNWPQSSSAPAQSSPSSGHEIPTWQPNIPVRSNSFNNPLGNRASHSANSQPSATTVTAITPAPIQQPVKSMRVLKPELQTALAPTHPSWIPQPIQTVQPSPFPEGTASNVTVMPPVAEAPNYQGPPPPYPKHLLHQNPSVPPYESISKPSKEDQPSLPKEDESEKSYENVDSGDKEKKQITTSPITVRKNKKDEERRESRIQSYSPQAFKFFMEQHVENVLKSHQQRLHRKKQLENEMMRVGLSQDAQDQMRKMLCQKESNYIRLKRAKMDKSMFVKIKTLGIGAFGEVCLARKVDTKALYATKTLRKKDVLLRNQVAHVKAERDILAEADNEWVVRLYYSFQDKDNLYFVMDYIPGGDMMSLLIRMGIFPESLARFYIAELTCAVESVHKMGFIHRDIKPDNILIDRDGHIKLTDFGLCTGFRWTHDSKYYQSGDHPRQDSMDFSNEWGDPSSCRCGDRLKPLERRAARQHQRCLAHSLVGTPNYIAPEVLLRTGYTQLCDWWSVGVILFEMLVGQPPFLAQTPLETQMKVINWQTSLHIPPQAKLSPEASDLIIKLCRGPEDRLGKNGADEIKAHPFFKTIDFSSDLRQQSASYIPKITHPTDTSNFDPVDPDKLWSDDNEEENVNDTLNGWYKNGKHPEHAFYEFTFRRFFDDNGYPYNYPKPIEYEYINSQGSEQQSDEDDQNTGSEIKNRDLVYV

Series 1
Target: Dual specificity tyrosine-phosphorylation-regulated kinase 3 (DYRK3, Homo sapiens, UniProt O43781)
UniProt O43781, sequence (whole entry, looked up): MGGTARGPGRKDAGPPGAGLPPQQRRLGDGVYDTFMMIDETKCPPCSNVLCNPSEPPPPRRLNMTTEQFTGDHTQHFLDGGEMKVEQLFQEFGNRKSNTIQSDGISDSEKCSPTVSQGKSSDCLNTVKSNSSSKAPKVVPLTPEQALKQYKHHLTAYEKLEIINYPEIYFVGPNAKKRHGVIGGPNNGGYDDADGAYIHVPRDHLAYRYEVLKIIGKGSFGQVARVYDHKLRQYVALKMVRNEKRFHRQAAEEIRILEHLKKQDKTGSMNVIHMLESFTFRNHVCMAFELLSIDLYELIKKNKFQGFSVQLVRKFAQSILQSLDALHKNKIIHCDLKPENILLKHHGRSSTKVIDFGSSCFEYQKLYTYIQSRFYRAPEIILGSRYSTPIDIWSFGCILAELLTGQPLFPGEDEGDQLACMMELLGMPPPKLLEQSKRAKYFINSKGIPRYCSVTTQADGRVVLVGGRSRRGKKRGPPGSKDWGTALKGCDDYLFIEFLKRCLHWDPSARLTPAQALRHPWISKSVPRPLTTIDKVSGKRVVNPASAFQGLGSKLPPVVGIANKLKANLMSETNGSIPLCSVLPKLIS
Observed: enzyme activity
Mode: inhibitor
Tested at: 0.5 µM
Baseline: control
| SMILES | remaining activity [%] |
| --- | --- |
| COc1cc2ncnc(Nc3ccc(Oc4ccccc4)cc3)c2cc1OC | 103 |
| CN(C)c1ccc(C=C2C(=O)Nc3ccccc32)cc1 | 99.5 |
| O=C(O)c1ccc2c3c1cccc3c(=O)n1c3ccccc3nc21 | 92.3 |
| Nc1ncnc2n[nH]c(Nc3ccc(F)cc3)c12 | 89 |
| O=S(=O)(c1cccc2cnccc12)N1CCCNCC1 | 89.1 |
| Cc1ccc(NC(=O)c2ccc(CN3CCN(C)CC3)cc2)cc1Nc1nc(-c2cccnc2)cs1 | 108 |
| Nc1ccc2ncnc(NCCc3ccc(Oc4ccccc4)cc3)c2c1 | 89.6 |
| COc1ccc(C(=O)Nc2sc3c(c2C(N)=O)CCCC3)cc1OC | 98 |
| Cn1c2ccccc2c2c3c(c4c5ccccc5n(CCC#N)c4c21)CNC3=O | 83.9 |
| CCOC(=O)c1c(C)[nH]c(/C=C2\C(=O)Nc3ccccc32)c1C | 102 |
| N#CC(C#N)=C(N)/C(C#N)=C/c1ccc(O)cc1 | 97.7 |
| COc1ccc(CNC(=O)Nc2ncc([N+](=O)[O-])s2)cc1 | 105 |
| O=C(Nc1cccc(Nc2cc(Nc3cccc(C(F)(F)F)c3)ncn2)c1)C1CC1 | 101 |
| C#Cc1cccc(Nc2ncnc3cc(OCCOC)c(OCCOC)cc23)c1 | 83.5 |
| COc1ccc(OC)c2c(=S)c3ccccc3[nH]c12 | 98.2 |
| CO[C@H]1C[C@@H]2CC[C@@H](C)[C@@](O)(O2)C(=O)C(=O)N2CCCC[C@H]2C(=O)O[C@H]([C@H](C)C[C@@H]2CC[C@@H](O)[C@H](OC)C2)CC(=O)[C@H](C)/C=C(\C)[C@@H](O)[C@@H](OC)C(=O)[C@H](C)C[C@H](C)/C=C/C=C/C=C/1C | 105 |

Series 2
SMILES: CN(C(=O)c1ccccc1)c1cc(N(C)c2ccc3c(c2)CCc2ccc(C(=O)NCCN4CCOCC4)cc2C3=O)ccc1F
Method: competition with immobilised ligand
Tested at: 1 µM
| target | assay | remaining binding |
| --- | --- | --- |
| LIM domain kinase 1 (LIMK1, Homo sapiens, UniProt P53667) | cell-free assay | 100% |
| BMPR1A (Homo sapiens, UniProt P36894) | binding | 80% |
| PRPF4B (Homo sapiens, UniProt Q13523) | cell-free assay | 70% |
| CDK11B (Homo sapiens, UniProt P21127) | cell-free assay | 100% |
| SRPK3 (Homo sapiens, UniProt Q9UPE1) | cell-free assay | 100% |
| LATS1 (Homo sapiens, UniProt O95835) | cell-free assay | 99% |

Series 3
Cell line: mouse MPNST tumor cells
Method: high-content nuclear imaging
Item: cell number
Tested at: 10 µM
Time: 12 h
Setting: mean of 2 replicates
Baseline: plate mean
Direction: higher = more cells
| SMILES | nuclei count |
| --- | --- |
| OCc1cc(C(O)CNCCCCCCOCCCCc2ccccc2)ccc1O (centres unmarked) | 0.978 z-score |
| COc1cc2ncn(-c3cc(OCc4ccccc4S(C)(=O)=O)c(C#N)s3)c2cc1OC | 4.28 z-score |
| CCCN(CC1CC1)c1nc(C)nc(Nc2c(Cl)cc(Cl)cc2Cl)c1Cl | -0.0029 z-score |
| COc1cc(C(=O)NCC2(N(C)C)CCCC2)cc(OC)c1OCc1ccccc1 | 4.7 z-score |
| COc1cc([S+](C)[O-])ccc1-c1nc2cccnc2[nH]1 (centres unmarked) | 1.86 z-score |
| C#C[C@]1(O)CC[C@H]2[C@@H]3CCC4=CCCC[C@@H]4[C@H]3CC[C@@]21C | 1.73 z-score |
| CN1CCN(C(=O)c2cc3cc(Cl)ccc3[nH]2)CC1 | 2.63 z-score |
| CC(CCc1ccc(O)cc1)NCCc1ccc(O)c(O)c1 (centres unmarked) | 2.7 z-score and 2.07 z-score |
| CC1CCN(CC[C@H]2CCCN2S(=O)(=O)c2cccc(O)c2)CC1 | 0.706 z-score |

Series 4
SMILES: CC(C)n1cnc(-c2ccc(F)cc2)c1-c1ncc(C(=O)Nc2ccc(N3CCN(C)CC3)cc2)[nH]1
Method: phase 2a trial
Species: idiopathic pulmonary fibrosis patients
| conditions | patients with coronary arteriosclerosis [%] |
| --- | --- |
| 30 mg once daily, adverse event grade 4 | 0 |
| dose not given, adverse event grade 1, all dose arms pooled | 0 |
| dose not given, adverse event grade 4, all dose arms pooled | 0 |
| 30 mg once daily, adverse event grade 3 | 0 |

A few entries again (series 3):
| SMILES | nuclei count |
| --- | --- |
| C#C[C@]1(O)CC[C@H]2[C@@H]3CCC4=CCCC[C@@H]4[C@H]3CC[C@@]21C | 1.73 z-score |
| COc1cc([S+](C)[O-])ccc1-c1nc2cccnc2[nH]1 (centres unmarked) | 1.86 z-score |
| CC1CCN(CC[C@H]2CCCN2S(=O)(=O)c2cccc(O)c2)CC1 | 0.706 z-score |
| CC(CCc1ccc(O)cc1)NCCc1ccc(O)c(O)c1 (centres unmarked) | 2.7 z-score and 2.07 z-score |
